Published values collected from several papers.
Lines come from different studies, so protocols differ. Numbers after ± are the reported error.
Organism: SARS-CoV-2

SMILES	assay	system	setting	EC50 [µM]
CC(C)(C)[C@H](NC(=O)C(F)(F)F)C(=O)N1C[C@@H]2CCC[C@@H]2[C@H]1C(=O)N[C@@H](C[C@@H]1CCNC1=O)C(=O)c1nc2c(F)ccc(F)c2s1	viral replication	Vero C1008, JPN/TY/WK-521 (ancestral Wuhan)		0.27
CC(C)C[C@H](NC(=O)c1cc2c(F)cc(F)cc2[nH]1)C(=O)N[C@@H](C[C@@H]1CCNC1=O)C(=O)c1nc2cc(F)ccc2s1	viral replication, RT-qPCR	VeroE6, WK-521		2.8 ± 0.2
COc1ccccc1OCCNCC(O)COc1cccc2[nH]c3ccccc3c12 (stereo not drawn)	viral replication, GFP plate reader screen		cell-based	15.5
C=CC(=O)Nc1cccc(-c2snc3cc(-c4ccc(N)c(OC)c4)cnc23)c1	viral replication	Vero E6, USA-WA1/2020		0.5
COc1ccc(Cc2nn3c([C@@H](CCCc4ccccc4)[C@@H](C)O)nc(C)c3c(=O)[nH]2)cc1OC	plaque formation, plaque reduction	Vero E6	72 h	16.7 ± 5.9
O[C@](Cn1cncn1)(Cn1cnc(/C=C\c2ccc(OCC(F)(F)C(F)F)cc2)n1)c1ccc(F)cc1F	viral replication, GFP plate reader screen	BetaCov/Belgium/GHB-03021/2020	cell-based	> 100
COc1ccc(-c2cc(C(F)(F)F)n3ncc(C(=O)Nc4sc5c(c4C(N)=O)CCCC5)c3n2)cc1	plaque formation, plaque reduction	Vero E6	72 h	9.8 ± 4.5
CC[C@H](C)[C@@H](C(=O)O[C@@H](CC(C)C)C(=O)N[C@@H](CC(C)C)C(=O)N[C@@H](C)/C=C/C(=O)N1C(=O)C=C(OC)[C@@H]1C)N(C)C	viral replication	HEK293 ACE2/TMPRSS2	fixed 7:1 molar combination	6.61
C1=C(c2ccc(CN3CCCCC3)cc2)N2CCN=C2c2ccccc21	viral replication	Huh-7-ACE2, USA-WA1/2020	24 h	0.11
CCC(CC)COC(=O)[C@H](C)N[P@](=O)(OC[C@H]1O[C@@](C#N)(c2ccc3c(N)ncnn23)[C@H](O)[C@@H]1O)Oc1ccccc1	viral replication, cell-based	Washington		0.3 ± 0.2
OCCN1CCN(CCC=C2c3ccccc3Sc3ccc(C(F)(F)F)cc32)CC1	viral replication, high-content imaging screen		cell-based	> 100
CCC(CC)COC(=O)[C@H](C)N[P@](=O)(OC[C@H]1O[C@@](C#N)(c2ccc3c(N)ncnn23)[C@H](O)[C@@H]1O)Oc1ccccc1	viral replication	Calu-3	48 h	0.08 ± 0.02
CCN(CCO)CCCC(C)Nc1ccnc2cc(Cl)ccc12 (stereo not drawn)	cytopathic effect	Vero C1008		5.04
CC[C@H](NC(=O)[C@H](CS(=O)(=O)CC1CC1)N[C@@H](c1ccc(F)cc1)C(F)(F)F)C(=O)C(=O)NC1CC1	viral replication	293T-ACE2, USA-WA1/2020	24 h	0.07
C=CC[C@H](NC(=O)CCl)C(=O)N[C@@H](Cc1c[nH]c2ccccc12)C(=O)NCc1ccccc1	viral replication	Vero, UC-1074		0.32 to 5.98
Cc1cc(NC(=O)c2cc3c(=O)n4cccc(C)c4nc3n2C)ccc1Br	viral replication, qPCR	Vero E6		0.108 ± 0.00304
COc1ccc2c(c1)c(CC(=O)O)c(C)n2C(=O)c1ccc(Cl)cc1	plaque formation, plaque reduction	Vero E6	72 h	> 50
CC(C)=CCC/C(C)=C/Cc1c(O)cc2oc3c(O)cccc3c(=O)c2c1O	viral replication	Calu-3, mNeonGreen reporter		27.9 ± 1.3
COc1ccc(C(=O)Nc2ccccc2C(=O)N[C@H](C(=O)N[C@H](CO)C(C)C)C(C)C)cc1	plaque formation, plaque reduction	Vero E6	72 h	30 ± 6.9
Cc1cccn2c(=O)c3cc(C(=O)Nc4ccc(N(C)C)cc4)n(C)c3nc12	viral replication	Vero E6		0.0376
COc1ccc(F)c2[nH]c(C(=O)N[C@@H](CC(C)C)C(=O)N[C@@H](C[C@@H]3CCNC3=O)C(=O)c3nc4c(F)cccc4s3)cc12	viral replication	VeroE6, WK-521 (ancestral Wuhan)		0.28 ± 0.02
O=C[C@H](C[C@@H]1CCNC1=O)NC(=O)[C@H](CC1CCCCC1)NC(=O)c1cc2ccccc2[nH]1	viral replication	Vero E6, 2019-nCoV-WIV04	40% human serum	2.15
O=c1[nH]cnc2c1nnn2[C@@H]1C(F)=C(CO)[C@@H](O)[C@H]1O	viral replication, spike protein immunostaining	Vero	48 h	> 100
CC(C)OC(=O)[C@H](C)N[P@](=O)(CO[C@H](C)Cn1cnc2c(N)ncnc21)Oc1ccccc1	viral replication	Vero	48 h	> 20
O=C(Cn1nnc2ccccc21)N(Cc1cccc(Cl)c1)c1ccc(-c2cnc[nH]2)cc1	viral replication	USA-WA1/2020		0.3
CCN(CCO)CCCC(C)Nc1ccnc2cc(Cl)ccc12 (stereo not drawn)	viral replication	Omicron		2.6 ± 0.36

SMILES	assay	system	setting	EC50 [µM]
CCC(C)NC(=O)c1ccccc1NC(=O)c1cccc(S(=O)(=O)Nc2ccccc2)c1 (stereo not drawn)	plaque formation, plaque reduction	Vero E6	72 h	9.4 ± 4.5
C=C1CC[C@@H]2[C@](C)(CO)[C@H](O)CC[C@@]2(C)[C@@H]1C/C=C1/C(=O)OC[C@H]1O	plaque reduction	Vero E6, B.3	72 h	1.4
CC(C)(C)NCc1ccc(Nc2ccnc3cc(Cl)ccc23)cc1O	viral replication	Huh-7-ACE2, USA-WA1/2020	24 h	0.37
CC(C)(C)[C@H](NC(=O)C(F)(F)F)C(=O)N1C[C@H]2[C@@H]([C@H]1C(=O)N[C@H](C#N)C[C@@H]1CCNC1=O)C2(C)C	viral replication	Vero C1008, BA.5		0.81
[N-]=[N+]=N[C@]1(CO)O[C@@H](n2ccc(N)nc2=O)[C@@H](F)[C@@H]1O	viral replication	Vero E6, USA-WA1/2020 nLuc reporter		> 100
Cc1cccc(/C=N/Nc2cc(N3CCOCC3)nc(OCCc3ccccn3)n2)c1	viral replication	Huh-7-ACE2, USA-WA1/2020	24 h	0.088
CSc1ccc(N(Cc2cc(Cl)cs2)C(=O)Cc2cncc3ccccc23)cc1	viral replication	Calu-3, Omicron BA.2		3.5
CC(C)[C@H](NC(=O)c1ccccc1NC(=O)c1ccccn1)C(=O)N[C@H](CO)C(C)C	plaque formation, plaque reduction	Vero E6	72 h	2.1 ± 1.1
CN(C)CCOc1ccc(/C(=C(/CCCl)c2ccccc2)c2ccccc2)cc1		Vero C1008, WIV04	24 h	2.5
CC(=O)c1cccc(NC(=O)c2cc3c(=O)n4ccccc4nc3n2C)c1	viral replication, qPCR	Vero E6		0.107 ± 0.00115
CC(C)(C)[C@H](NC(=O)C(F)(F)F)C(=O)N1C[C@H]2[C@@H]([C@H]1C(=O)N[C@H](C#N)C[C@@H]1CCNC1=O)C2(C)C	viral replication, cell-based	Washington		0.08 ± 0.07
Fc1ccc([C@@H]2CCNC[C@H]2COc2ccc3c(c2)OCO3)cc1	viral replication, GFP plate reader screen		cell-based	15.1
CCc1cc(Br)cc2c(C(=O)N3CCOCC3)cc(-c3ccc(OC)cc3)nc12	plaque formation, plaque reduction	Vero E6	72 h	7.2 ± 1
N#C[C@@]1(c2ccc3c(N)ncnn23)O[C@H](CO)[C@@H](O)[C@H]1O	infectious virus yield	Vero C1008, VOC-202012/01	48 h, 50% decrease endpoint	15.6 ± 0.76
NC(=O)C1(N2CCCCC2)CCN(CCCN2c3ccccc3CCc3ccccc32)CC1	viral replication, GFP plate reader screen		cell-based	8.91
Cn1cnc(Cn2c(=O)[nH]/c(=N\c3cc4cn(C)nc4cc3Cl)n(Cc3cc(F)c(F)cc3F)c2=O)n1	viral replication	Vero C1008, XBB.1		0.07
CCOC(=O)c1c(CSc2ccccc2)n(C)c2cc(Br)c(O)c(CN(C)C)c12		Vero C1008, MEX-BC2/2020	96 h	5.6
COc1ccc2cc1Oc1ccc(cc1)C[C@H]1c3cc(c(OC)cc3CCN1C)Oc1c(OC)c(OC)cc3c1[C@H](C2)N(C)CC3	viral replication	Huh-7-ACE2, USA-WA1/2020	24 h	0.64
CC(C)(C)[C@H](NC(=O)C(F)(F)F)C(=O)N1C[C@H]2[C@@H]([C@H]1C(=S)N[C@@H](C[C@@H]1CCNC1=O)C(=O)c1nc3cc(F)ccc3s1)C2(C)C	viral replication	Vero C1008, JPN/TY/WK-521 (ancestral Wuhan)		0.057
CC(=O)O[C@H]1CC[C@@]2(C)C(=CC[C@@H]3[C@@H]2CC[C@]2(C)C(c4cccnc4)=CC[C@@H]32)C1	viral replication, GFP plate reader screen		cell-based	> 100
CC(C)(C)c1ccc(N(Cc2cc(Cl)cs2)C(=O)Cc2cncc3ccccc23)cc1		Calu-3, B.1.617.2 Delta		8.5
Cc1cc(C)c2nc(-c3cnc(NCCCC4CCN(C)CC4)nc3C)[nH]c2c1	viral replication, GFP plate reader screen		cell-based	> 25.1
CCNC/C=C\CNCCCCNCCCCNC/C=C\CNCC	viral replication	Huh-7-ACE2, USA-WA1/2020	24 h	6
CN(C)c1ccc(N(Cc2cc(Cl)cs2)C(=O)Cc2cncc3cccc(O)c23)cc1	nucleocapsid staining	Caco-2, Omicron BA.5		0.06 ± 0.05
O=C1NC2CCCCN2C12CCN(CCCN1c3ccccc3CCc3ccc(Cl)cc31)CC2 (stereo not drawn)	viral replication, high-content imaging screen	BetaCov/Belgium/GHB-03021/2020	cell-based	> 100

A few entries again:
SMILES	assay	system	setting	EC50 [µM]
OCCN1CCN(CCC=C2c3ccccc3Sc3ccc(C(F)(F)F)cc32)CC1	viral replication, high-content imaging screen		cell-based	> 100
CCC(CC)COC(=O)[C@H](C)N[P@](=O)(OC[C@H]1O[C@@](C#N)(c2ccc3c(N)ncnn23)[C@H](O)[C@@H]1O)Oc1ccccc1	viral replication	Calu-3	48 h	0.08 ± 0.02
CCN(CCO)CCCC(C)Nc1ccnc2cc(Cl)ccc12 (stereo not drawn)	cytopathic effect	Vero C1008		5.04
CC[C@H](NC(=O)[C@H](CS(=O)(=O)CC1CC1)N[C@@H](c1ccc(F)cc1)C(F)(F)F)C(=O)C(=O)NC1CC1	viral replication	293T-ACE2, USA-WA1/2020	24 h	0.07
